{"data": "Measurements pooled from the literature", "target": "Serine/threonine-protein kinase PLK4 (PLK4, Homo sapiens, UniProt O00444)", "note": "Lines come from different studies, so protocols differ. “And” joins repeats or separate records; there may be more than shown."}
{"Structure (SMILES)": "NC(=O)C[C@H]1CCc2sc3ncnc(O[C@H]4CC[C@H](N5CCOCC5)CC4)c3c21", "test": "enzyme activity, inhibitor", "setting": "10 µM", "quantity": "inhibition", "value": "0%"}
{"Structure (SMILES)": "CC(=O)N1c2ccc(-c3ccc(CNC(=O)c4cn5cc(-c6cnc(N)nc6)nc(N6CCOCC6)c5n4)cc3)cc2CC[C@@H]1C", "test": "KINOMEscan", "setting": "10 µM", "quantity": "remaining binding", "value": "91%"}
{"Structure (SMILES)": "CN1CCN(Cc2ccc(-c3ccc(CO[C@H]4CCC[C@@H]4NC(=O)c4cc(-c5cnn(C)c5)cnc4N)cc3)cc2)CC1", "test": "enzyme activity, inhibitor", "setting": "0.1 µM", "quantity": "inhibition", "value": "0%"}
{"Structure (SMILES)": "Nc1ncc2c(n1)-c1c([nH]c3ccc(C4=CCOCC4)cc13)CCC2", "test": "binding, competition with immobilised ligand", "setting": "1 µM", "quantity": "remaining binding", "value": "91%"}
{"Structure (SMILES)": "C=CC(=O)Nc1cccc(-c2cnc3[nH]cc(C(=O)NC(C)(C)C)c3n2)c1", "test": "enzyme activity, inhibitor", "setting": "0.1 µM", "quantity": "inhibition", "value": "12%"}
{"Structure (SMILES)": "CCn1cc(C(=O)O)c(=O)c2c(N)c(F)c(NC3CCCCC3)cc21", "test": "kinase activity", "setting": "0.1 µM, together with: ATP at Km", "quantity": "inhibition", "value": "1.7%"}
{"Structure (SMILES)": "Cc1cccc(O[C@H]2CCC[C@@H](C(C)CNCc3ccncc3)C2)c1 (relative stereo)", "test": "enzyme activity, inhibitor", "setting": "10 µM", "quantity": "inhibition", "value": "-18%"}
{"Structure (SMILES)": "COc1ccc(NC(=O)Nc2ccc3c(c2)C(=O)N(C(C)CO)CC(C)C(CN(C)Cc2ccc4c(c2)OCO4)O3)cc1 (centres unmarked)", "test": "binding, competition with immobilised ligand", "setting": "10 µM", "quantity": "remaining binding", "value": "61%"}
{"Structure (SMILES)": "COCC12C(=O)NC3C4(C(OC)CC1O)C1CC5(O)C(OC)C(O)C(OC(C)=O)(C1C5OC(=O)c1ccccc1)C3(O)C(OC)C24 (centres unmarked)", "test": "kinase activity, inhibitor, ProQinase kinase profiling", "setting": "25 µM", "how to read": "baseline: control", "quantity": "remaining activity", "value": "64% and 72%"}
{"Structure (SMILES)": "CC(C)=CC1OC(C)(C)C2C=C3C(=O)C(Cl)=CC(O)C3C3C(O)C4OC4C(=O)C132 (centres unmarked)", "test": "cell-free assay, competition with immobilised ligand", "setting": "10 µM", "quantity": "remaining binding", "value": "89%"}
{"Structure (SMILES)": "COc1cc(-n2cc3cc(F)cc(C(N)=O)c3n2)cc(Cl)c1C1CC(O)(CCO)Cc2ccccc21 (centres unmarked)", "test": "enzyme activity, inhibitor", "setting": "10 µM", "quantity": "inhibition", "value": "0.87%"}
{"Structure (SMILES)": "C=C1CCCCCCCCCC(CO)C1=O (centres unmarked)", "test": "cell-free assay, competition with immobilised ligand", "setting": "10 µM", "quantity": "remaining binding", "value": "53%"}
{"Structure (SMILES)": "CN1CCN(Cc2ccc(NC(=O)c3cccc(C#Cc4cnc(N)c5ncccc45)c3)cc2C(F)(F)F)CC1", "test": "cell-free assay, competition with immobilised ligand", "setting": "0.5 µM", "quantity": "remaining binding", "value": "69%"}
{"Structure (SMILES)": "COc1cc(Nc2nccc(-c3cnn4nc(OC)ccc34)n2)cc(C(F)(F)F)c1", "test": "binding, competition with immobilised ligand", "setting": "1 µM", "quantity": "remaining binding", "value": "64%"}
{"Structure (SMILES)": "CNS(=O)(=O)Nc1nccc(Cc2c(C)c3ccc(Oc4ncccc4F)cc3oc2=O)c1F", "test": "binding, competition with immobilised ligand", "setting": "10 µM", "quantity": "remaining binding", "value": "100%"}
{"Structure (SMILES)": "C=CC(=O)N1Cc2nc(-c3cc(-c4cc(Cl)cnc4Cl)c(F)cc3F)n(-c3ccncn3)c2C1", "test": "cell-free assay, inhibitor", "setting": "1 µM", "quantity": "inhibition", "value": "-3.9%"}
{"Structure (SMILES)": "COc1c(Cl)cccc1Nc1c(-c2ccncc2C#C[C@@]2(C)CCCN2C(=O)/C=C/CN(C)C)[nH]c2c1C(=O)NCC2", "test": "binding, competition with immobilised ligand", "setting": "3 µM", "quantity": "remaining binding", "value": "91%"}
{"note": "For quick reference, copied from above:"}
{"Structure (SMILES)": "COc1cc(Nc2nccc(-c3cnn4nc(OC)ccc34)n2)cc(C(F)(F)F)c1", "test": "binding, competition with immobilised ligand", "setting": "1 µM", "quantity": "remaining binding", "value": "64%"}
{"Structure (SMILES)": "CNS(=O)(=O)Nc1nccc(Cc2c(C)c3ccc(Oc4ncccc4F)cc3oc2=O)c1F", "test": "binding, competition with immobilised ligand", "setting": "10 µM", "quantity": "remaining binding", "value": "100%"}
